Experimental data collected from several papers.
Parts stem from different laboratories: compare values within a part only. Positions count from the first letter of the parent shown.

Set 1
Target: Fragile X messenger ribonucleoprotein 1, C-terminal low-complexity region (Fmr1, Mus musculus, UniProt P35922)
Method: RNA Bind-n-Seq
Molecule type: RNA
Sample: in vitro
Concentration: 200 nM
Notes: whole 134-nt RNA, ends assumed
Added: 150 mM KCl
Reference: input library
Reading: higher = stronger binding
Endpoint: log2 enrichment
Constant ends, left off below: GGGAGUUCUACAGUCCGACGAUC … UGGAAUUCUCGGGUGUCAAGG
CUCAAGUCCUGUGCUACACAUCGUAUGUACCGAAUCGGCCGGGCCGGGGCCGGGAAAGUAUUAUGUUACGCCGUUCGGAUCUGCACUUCC: -0.0649
AAGUCCUGUGCUACACAUCGUAUGUACCGAAUCGGGAAAGGGAAAGGGAAAAAGGGAAAGUAUUAUGUUACGCCGUUCGGAUCUGCACUU: -0.0271
CACAGACAACACGCACCCACACAGACACAGAGGGAAGGGGUUGGGAUGGAGACAGGGUGCACAGCAGGGCGGGGUAGGACCCCAGCCCCU: 0.912
GCAGGAAGUAAAAACAAAUGGAAAUGCUUCGGAUAGUGGCAGGGGAAAGGGUUGCUAAGGAAAGGGUGGGAUGGGAGUGGGUAAAGAGUU: 0.339
AAGUCCUGUGCUACACAUCGUAUGUACCGAAUCGGGGAGGGGAAAAAGGGGUGGGGAAAGUAUUAUGUUACGCCGUUCGGAUCUGCACUU: 1.03
GCAGGAAGUAAAAACAAAUGGAAAUGCUUCGGAUAGUGGCAGGGGUGGGGGUUGCUAAGGAAAGGGUGGGAUGGGAGUGGGUAGAGAGUU: 0.211
CAAGUCCUGUGCUACACAUCGUAUGUACCGAAUCGGGGUGGGGAGGGGUUUGGGGAAAGUAUUAUGUUACGCCGUUCGGAUCUGCACUUC: 1.28
CAAGUCCUGUGCUACACAUCGUAUGUACCGAAUCGGGGAAGGGAAGGGGAAGGGGAAAGUAUUAUGUUACGCCGUUCGGAUCUGCACUUC: 0.82
CCCAUGCAGGUGGGCAUCUUUGGGAAGUGGGGCAAGGGGGGGAUAGGGAGGGGGGUAACACUUUGGGAACAGGUGGUCCCAGGUCGUUUC: 0.655
ACAAGUGGAGGAGAAGAACUUAGAAGAACUAGAGGAGAAAUCUACUACUCCUCCUCCGGCAGAACCUGUUUCUCUGCCACAAGAACCACC: -0.463
UCCUGUGCUACACAUCGUAUGUACCGAAUCGGGAAAAAAGGAAAAAAGGAAAAAAGGGGAAAGUAUUAUGUUACGCCGUUCGGAUCUGCA: -0.56
GCAGGAAGUAAAAACAAAUGGAAAUGCUUCGGAUAGUGGCAGGGGUGGGGGUUGCUAAGGAAAGGGUAGGAUGGGAGUGGGUAAAGAGUU: 0.272
AAGUCCUGUGCUACACAUCGUAUGUACCGAAUCGGAAAAAAAGGAAAAAAAGGUGGAAAGUAUUAUGUUACGCCGUUCGGAUCUGCACUU: -0.938
GUCCUGUGCUACACAUCGUAUGUACCGAAUCGGCCCCCCGGCCCCCCGGGCCCCCCGGGAAAGUAUUAUGUUACGCCGUUCGGAUCUGCA: -0.236

Set 2
Target: Interferon regulatory factor 7, full length, phosphomimetic (IRF7, Homo sapiens, UniProt Q92985, residues 1-503, S471D/S472D/S475D/S476D/S477D/S483D/S484D/S487D)
Method: protein-binding microarray
Molecule type: double-stranded DNA, one strand shown
Sample: in vitro
Concentration: 2200 nM top
Notes: 60-bp whole probe
Added: salmon DNA 0.4 mg/ml
Reference: random background probes
Reading: higher = stronger binding
Endpoint: fitted relative affinity
Constant ends, left off below: GCCTAGCAC … GTCTTGATTCGCTTGACGCTGCTG
Construct (chain): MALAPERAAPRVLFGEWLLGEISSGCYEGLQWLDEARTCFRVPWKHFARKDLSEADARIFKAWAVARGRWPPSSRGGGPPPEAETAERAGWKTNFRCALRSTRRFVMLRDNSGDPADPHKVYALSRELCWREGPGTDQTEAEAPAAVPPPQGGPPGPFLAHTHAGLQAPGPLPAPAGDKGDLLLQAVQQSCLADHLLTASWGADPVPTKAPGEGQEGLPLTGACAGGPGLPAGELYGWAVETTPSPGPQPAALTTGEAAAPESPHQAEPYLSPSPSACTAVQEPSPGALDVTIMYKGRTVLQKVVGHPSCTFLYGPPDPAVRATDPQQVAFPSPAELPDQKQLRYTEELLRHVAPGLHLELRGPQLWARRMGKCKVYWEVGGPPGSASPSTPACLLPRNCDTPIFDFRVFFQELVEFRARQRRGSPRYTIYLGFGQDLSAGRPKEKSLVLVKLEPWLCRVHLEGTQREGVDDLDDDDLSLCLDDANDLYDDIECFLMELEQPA
CAGCCAATCAGGACTCAGGGAGTGCTA: -0.883 z-score
TTAGGACTGGGGACTGGGTTTGTGCTA: -0.716 z-score
TCACTTTTTTTTCTTTAACTGTGCTAG: 2.67 z-score
TCAAGCTTCTTTTTTATACTGTGCTAG: 0.363 z-score
TCATGTGTCAGGTTTACTACTGTGCTA: 0.396 z-score
TCATTCCTGAAATCTCTTACTGTGCTA: 1.22 z-score
TTAGATCTCAGTCTGGATTAGTGCTAG: 0.317 z-score
GGACAGTAATGGAGGTATAAGTGCTAG: -0.682 z-score
GACGGTATCCTAGTGCTGACGTGCTAG: 0.0669 z-score
TTAAGTTTCGGTTTCGGTTAGTGCTAG: 17.5 z-score
GACTATTTCAGTTCCGAGACGTGCTAG: 1.71 z-score
TTATGACTGCTTCTCCTTTAGTGCTAG: 1.43 z-score
TTAGGACTGCGTATCGGTTAGTGCTAG: -0.00843 z-score
TTAGTTATCGGGTTTCGGTTAGTGCTA: 4.9 z-score
CTTTTTTTTTTTTTTTTTTGGTGCTAG: 1.99 z-score
TTAGGCTTCGGTTCCGGTTAGTGCTAG: 1.46 z-score
TCAGATTTTGCTTTCATACTGTGCTAG: 2.58 z-score
TTAGTTTTCAGTCTCGATTAGTGCTAG: 2.96 z-score
TTAGGACGGCTACTGCTTTAGTGCTAG: -0.494 z-score
TTTCATTTATTTACTCTCTACGTGCTA: 4.18 z-score
TTAGGTATCGGGTATCCGTTAGTGCTA: 0.367 z-score
CTCCCTTTCAGTTTTCCTATGTGCTAG: 5.05 z-score
TTAGGTCTCTGTCTCGGTTAGTGCTAG: 0.787 z-score
TTAGGTCTCGGTATCGGTTGGTGCTAG: 1.04 z-score
TTAGGTTCCCTTTTCCATTAGTGCTAG: 3.17 z-score

Set 3
Target: CCNE2, cyclin fold, Cln2 fusion (human)
Method: yeast growth competition, sequencing
Sample: yeast
Notes: weak parent motif
Reference: not given
Reading: higher = stronger binding
Endpoint: normalised enrichment score
Starting sequence: RB1 docking peptide (human); PKPLKKLRFDIEG
E12T: 1.55
R8D: 0.164
E12K: -0.596
R8A: 0.421
K2P: 0.874
P1F: 0.631
K2A: 0.715
D10P: 0.212
G13Q: 0.322
K5G: 0.756
K5P: 0.334
K2E: 0.455
P3V: 0.0244
L4R: 0.587
I11T: -0.304
K2N: 0.251
L4K: -0.278
K2D: -0.518

Set 4
Target: MAFG, bZIP domain (human)
Method: DHFR protein complementation
Sample: yeast
Notes: single substitutions, most at no-binding floor
Reference: wild-type JUN-FOS pair
Reading: higher = stronger binding
Endpoint: binding fitness
Starting sequence: JUN, bZIP domain (human); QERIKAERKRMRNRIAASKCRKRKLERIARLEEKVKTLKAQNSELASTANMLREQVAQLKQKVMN; partner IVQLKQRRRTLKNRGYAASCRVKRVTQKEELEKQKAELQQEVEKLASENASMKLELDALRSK
T48I: -1.45 natural log
I28K: -1.46 natural log
L31D: -1.56 natural log
E32G: -1.45 natural log
L45A: -1.57 natural log
A29L: -1.32 natural log
K36T: -1.46 natural log
S43Q: -1.27 natural log
L38Q: -1.13 natural log
V56T: -1.47 natural log
Q41C: -1.43 natural log
A29E: -1.45 natural log
V35H: -1.47 natural log
E44R: -1.44 natural log

Set 5
Target: ABI1, truncated, D143A, DHFR fusion (Arabidopsis thaliana)
Method: DHFR PCA, deep sequencing
Sample: yeast
Notes: methotrexate growth selection, single substitutions
Added: (+)-ABA 2500 µM
Reference: wild-type fitted maximum
Reading: higher = stronger binding
Endpoint: relative binding score
Starting sequence: PYL1, truncated, DHFR fusion (Arabidopsis thaliana); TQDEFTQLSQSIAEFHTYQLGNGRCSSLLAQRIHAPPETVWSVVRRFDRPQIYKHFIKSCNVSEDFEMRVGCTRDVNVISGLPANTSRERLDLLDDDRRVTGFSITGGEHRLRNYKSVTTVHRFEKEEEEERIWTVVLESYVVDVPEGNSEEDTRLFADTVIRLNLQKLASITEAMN
Q2F: 95.9%
R99K: 108%
R74F: 3.98%
L169Q: -8.43%
T119C: 106%
N85W: 93.3%
D153L: 27.2%
E128Q: 108%
R88K: 98.7%
Q167F: 91%

Single results of other studies
PhoQ, residues 284 288 289 292 302 303 AGGLSV
fold induction (PhoP, residues 12 14 15 18 19 HEGLL (Escherichia coli, UniProt P23836); Sort-seq, item: YFP reporter; E. coli; PhoQ-PhoP variant library, added: 10 µM Mg2+; reference: high Mg2+ state, higher = stronger signaling): 0.343

Excerpt of the above (set 2):
CTTTTTTTTTTTTTTTTTTGGTGCTAG: 1.99 z-score
TTAGGACGGCTACTGCTTTAGTGCTAG: -0.494 z-score
TTAGTTATCGGGTTTCGGTTAGTGCTA: 4.9 z-score
TTAGGCTTCGGTTCCGGTTAGTGCTAG: 1.46 z-score
TTAGGTATCGGGTATCCGTTAGTGCTA: 0.367 z-score
TCATGTGTCAGGTTTACTACTGTGCTA: 0.396 z-score
TTAGGACTGCGTATCGGTTAGTGCTAG: -0.00843 z-score
GACTATTTCAGTTCCGAGACGTGCTAG: 1.71 z-score
CAGCCAATCAGGACTCAGGGAGTGCTA: -0.883 z-score
TTAGGACTGGGGACTGGGTTTGTGCTA: -0.716 z-score
TTATGACTGCTTCTCCTTTAGTGCTAG: 1.43 z-score
TCAAGCTTCTTTTTTATACTGTGCTAG: 0.363 z-score
